Assay results pooled from the literature.
A part holds a random share of what one study measured.
Sequence of UniProt O60285 (whole entry, looked up): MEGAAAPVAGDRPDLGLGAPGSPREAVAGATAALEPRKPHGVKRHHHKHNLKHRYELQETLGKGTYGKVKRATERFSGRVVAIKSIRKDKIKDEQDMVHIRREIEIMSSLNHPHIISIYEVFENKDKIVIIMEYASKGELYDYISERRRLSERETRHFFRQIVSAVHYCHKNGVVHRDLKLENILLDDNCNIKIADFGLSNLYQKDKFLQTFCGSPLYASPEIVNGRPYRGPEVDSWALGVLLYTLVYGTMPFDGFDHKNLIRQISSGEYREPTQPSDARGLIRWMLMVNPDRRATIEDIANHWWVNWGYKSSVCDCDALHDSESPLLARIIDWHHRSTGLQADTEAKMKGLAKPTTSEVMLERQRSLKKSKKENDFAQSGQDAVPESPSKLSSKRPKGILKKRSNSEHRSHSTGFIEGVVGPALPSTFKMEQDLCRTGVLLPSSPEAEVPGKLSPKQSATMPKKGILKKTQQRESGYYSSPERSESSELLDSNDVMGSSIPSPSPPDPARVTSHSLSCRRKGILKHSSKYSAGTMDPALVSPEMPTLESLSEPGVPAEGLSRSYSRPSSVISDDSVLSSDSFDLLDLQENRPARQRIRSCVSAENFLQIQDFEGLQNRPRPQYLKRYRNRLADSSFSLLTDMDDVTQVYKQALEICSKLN
Sequence of UniProt P49840 (whole entry, looked up): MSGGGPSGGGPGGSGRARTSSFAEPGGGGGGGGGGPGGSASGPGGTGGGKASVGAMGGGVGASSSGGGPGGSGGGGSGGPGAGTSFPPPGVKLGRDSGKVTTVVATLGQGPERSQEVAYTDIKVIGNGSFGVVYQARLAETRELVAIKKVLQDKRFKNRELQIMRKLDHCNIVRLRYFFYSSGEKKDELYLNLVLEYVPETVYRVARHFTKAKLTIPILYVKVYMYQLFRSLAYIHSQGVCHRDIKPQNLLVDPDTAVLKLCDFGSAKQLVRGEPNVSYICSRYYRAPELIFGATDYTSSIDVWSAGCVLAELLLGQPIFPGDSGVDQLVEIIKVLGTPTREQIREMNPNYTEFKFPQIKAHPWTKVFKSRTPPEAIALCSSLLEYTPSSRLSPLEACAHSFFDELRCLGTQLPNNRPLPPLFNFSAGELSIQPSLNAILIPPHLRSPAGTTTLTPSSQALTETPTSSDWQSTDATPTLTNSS
Sequence of UniProt P00519 (whole entry, unmodified, looked up): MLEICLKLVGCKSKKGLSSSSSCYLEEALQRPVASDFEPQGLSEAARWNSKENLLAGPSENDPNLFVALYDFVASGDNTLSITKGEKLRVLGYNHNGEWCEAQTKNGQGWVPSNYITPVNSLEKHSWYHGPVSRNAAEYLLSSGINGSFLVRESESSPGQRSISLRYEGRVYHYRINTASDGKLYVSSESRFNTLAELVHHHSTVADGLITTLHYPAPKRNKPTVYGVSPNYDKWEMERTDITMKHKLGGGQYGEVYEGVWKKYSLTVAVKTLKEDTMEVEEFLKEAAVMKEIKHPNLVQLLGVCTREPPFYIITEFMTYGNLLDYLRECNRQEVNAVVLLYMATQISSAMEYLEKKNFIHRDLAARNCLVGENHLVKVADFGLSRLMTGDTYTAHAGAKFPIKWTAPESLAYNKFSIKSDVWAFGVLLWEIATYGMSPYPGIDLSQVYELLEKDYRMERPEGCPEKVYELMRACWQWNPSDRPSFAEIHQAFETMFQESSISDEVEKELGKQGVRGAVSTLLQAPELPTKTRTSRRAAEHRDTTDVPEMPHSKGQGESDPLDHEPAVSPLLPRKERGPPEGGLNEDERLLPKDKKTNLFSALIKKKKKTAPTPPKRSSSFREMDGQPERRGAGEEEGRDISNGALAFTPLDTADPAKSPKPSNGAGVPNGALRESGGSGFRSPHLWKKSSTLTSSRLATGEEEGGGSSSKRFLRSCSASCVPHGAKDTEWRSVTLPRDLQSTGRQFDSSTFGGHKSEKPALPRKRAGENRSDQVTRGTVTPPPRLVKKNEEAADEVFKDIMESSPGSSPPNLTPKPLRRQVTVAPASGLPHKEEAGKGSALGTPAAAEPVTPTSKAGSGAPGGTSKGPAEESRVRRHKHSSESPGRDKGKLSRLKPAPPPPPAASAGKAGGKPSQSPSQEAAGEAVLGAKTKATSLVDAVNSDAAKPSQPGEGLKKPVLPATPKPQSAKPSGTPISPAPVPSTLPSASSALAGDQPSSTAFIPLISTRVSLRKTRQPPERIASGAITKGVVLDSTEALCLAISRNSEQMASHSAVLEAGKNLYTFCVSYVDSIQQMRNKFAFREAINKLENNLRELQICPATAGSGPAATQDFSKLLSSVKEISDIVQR
Sequence of UniProt Q9UPE1 (whole entry, looked up): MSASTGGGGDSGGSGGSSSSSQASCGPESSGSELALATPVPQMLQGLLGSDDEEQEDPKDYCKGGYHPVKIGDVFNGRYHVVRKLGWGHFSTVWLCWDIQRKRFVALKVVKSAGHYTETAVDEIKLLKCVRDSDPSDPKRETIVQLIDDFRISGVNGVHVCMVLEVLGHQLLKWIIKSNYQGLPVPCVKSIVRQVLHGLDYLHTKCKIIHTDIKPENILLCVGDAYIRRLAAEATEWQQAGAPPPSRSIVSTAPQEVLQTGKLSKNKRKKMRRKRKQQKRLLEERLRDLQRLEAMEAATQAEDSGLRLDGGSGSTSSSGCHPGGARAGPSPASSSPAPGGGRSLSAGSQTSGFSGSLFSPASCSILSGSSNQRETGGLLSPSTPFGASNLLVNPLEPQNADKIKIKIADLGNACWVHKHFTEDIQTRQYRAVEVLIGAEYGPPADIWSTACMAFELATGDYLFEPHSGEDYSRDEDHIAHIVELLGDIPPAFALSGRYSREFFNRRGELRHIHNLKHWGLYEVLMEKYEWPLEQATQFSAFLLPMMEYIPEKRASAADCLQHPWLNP
Sequence of UniProt P22455 (whole entry, looked up): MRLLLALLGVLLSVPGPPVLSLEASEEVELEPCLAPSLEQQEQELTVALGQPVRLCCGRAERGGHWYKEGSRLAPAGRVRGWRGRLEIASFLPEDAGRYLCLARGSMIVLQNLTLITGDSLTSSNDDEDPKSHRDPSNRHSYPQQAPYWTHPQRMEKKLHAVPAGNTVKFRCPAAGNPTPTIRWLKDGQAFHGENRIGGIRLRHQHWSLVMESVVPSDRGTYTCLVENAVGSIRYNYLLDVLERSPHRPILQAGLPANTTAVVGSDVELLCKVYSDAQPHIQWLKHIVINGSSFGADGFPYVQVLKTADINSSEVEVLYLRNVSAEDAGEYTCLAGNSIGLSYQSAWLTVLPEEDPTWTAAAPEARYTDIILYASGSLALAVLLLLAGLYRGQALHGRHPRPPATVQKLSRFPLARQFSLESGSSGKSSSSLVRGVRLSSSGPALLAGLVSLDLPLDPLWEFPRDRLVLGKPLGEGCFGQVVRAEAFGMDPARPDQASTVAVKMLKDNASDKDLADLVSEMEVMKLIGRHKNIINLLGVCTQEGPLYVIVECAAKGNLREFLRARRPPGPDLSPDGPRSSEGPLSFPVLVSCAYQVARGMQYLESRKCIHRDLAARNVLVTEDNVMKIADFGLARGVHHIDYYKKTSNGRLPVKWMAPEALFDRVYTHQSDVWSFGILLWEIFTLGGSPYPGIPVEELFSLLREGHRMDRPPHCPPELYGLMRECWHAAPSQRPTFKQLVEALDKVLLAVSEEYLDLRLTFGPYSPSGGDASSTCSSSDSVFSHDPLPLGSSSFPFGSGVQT
Sequence of UniProt P43250 (whole entry, looked up): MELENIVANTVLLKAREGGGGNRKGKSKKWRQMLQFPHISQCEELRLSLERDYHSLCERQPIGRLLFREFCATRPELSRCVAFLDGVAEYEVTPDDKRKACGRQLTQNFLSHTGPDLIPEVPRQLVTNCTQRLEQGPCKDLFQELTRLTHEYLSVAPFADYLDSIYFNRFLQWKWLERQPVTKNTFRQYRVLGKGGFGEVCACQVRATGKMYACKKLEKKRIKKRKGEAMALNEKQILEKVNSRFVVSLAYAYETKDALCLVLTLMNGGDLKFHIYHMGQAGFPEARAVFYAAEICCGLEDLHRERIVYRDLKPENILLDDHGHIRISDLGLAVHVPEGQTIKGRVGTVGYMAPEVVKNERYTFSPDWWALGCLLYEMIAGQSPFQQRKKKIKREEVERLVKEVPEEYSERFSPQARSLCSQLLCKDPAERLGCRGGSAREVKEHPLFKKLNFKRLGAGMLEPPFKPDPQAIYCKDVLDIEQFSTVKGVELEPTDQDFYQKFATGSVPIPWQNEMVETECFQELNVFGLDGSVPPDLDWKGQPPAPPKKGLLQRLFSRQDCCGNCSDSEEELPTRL

Series 1 — read-out: cell-free assay; method: competition with immobilised ligand; tested at: 1 µM
Structure (SMILES): COc1ccc2c(O[C@@H]3C[C@H]4C(=O)N[C@]5(C(=O)O)CC5/C=C\CCCCC[C@H](NC(=O)OC5CCCC5)C(=O)N4C3)cc(-c3csc(NC(=O)C(C)C)n3)nc2c1C (some centres unmarked)
| target | remaining binding [%] |
| --- | --- |
| Activin receptor type-1-like (ACVRL1, Homo sapiens, UniProt P37023) | 97 |
| Serine/threonine-protein kinase MARK1 (MARK1, Homo sapiens, UniProt Q9P0L2) | 100 |
| Tyrosine-protein kinase ABL1, phosphorylated (ABL1, Homo sapiens, UniProt P00519, E255K) | 80 |
| Serine/threonine-protein kinase RIO1 (RIOK1, Homo sapiens, UniProt Q9BRS2) | 93 |

Series 2 — method: Phase 2a trial; host: idiopathic pulmonary fibrosis patients
SMILES: CC(C)n1cnc(-c2ccc(F)cc2)c1-c1ncc(C(=O)Nc2ccc(N3CCN(C)CC3)cc2)[nH]1
| test | conditions | patients with adverse events [%] |
| --- | --- | --- |
| refers to: tri-iodothyronine increased | dose not given, grade 2 maximum intensity, all arms | 0 |
| refers to: oral herpes | oral, 60 mg once daily, grade 3 maximum intensity | 0 |
| refers to: reticulocyte count increased | 30 mg once daily, grade 1 maximum intensity | 0 |
| refers to: tri-iodothyronine increased | 60 mg once daily, grade 4 maximum intensity | 0 |
| refers to: reticulocyte count increased | 60 mg once daily, grade 2 maximum intensity | 0 |
| refers to: eye disorders (SOC) | dose not given, grade 3 maximum intensity, all arms | 0 |

Series 3 — Compound: Cc1ccc(S(=O)(=O)/C=C/C#N)cc1; read-out: enzyme activity; action: inhibitor; tested at: 0.5 µM; baseline: control
| target | remaining activity |
| --- | --- |
| SRSF protein kinase 3 (SRPK3, Homo sapiens, UniProt Q9UPE1) | 104% |
| NUAK family SNF1-like kinase 1 (NUAK1, Homo sapiens, UniProt O60285) | 101% |
| Ephrin type-A receptor 7 (EPHA7, Homo sapiens, UniProt Q15375) | 99.8% |
| Glycogen synthase kinase-3 alpha (GSK3A, Homo sapiens, UniProt P49840) | 106% |
| Protein kinase C gamma type (PRKCG, Homo sapiens, UniProt P05129) | 92.9% |
| Tyrosine-protein kinase CSK (CSK, Homo sapiens, UniProt P41240) | 97.2% |
| G protein-coupled receptor kinase 6 (GRK6, Homo sapiens, UniProt P43250) | 112% |
| Fibroblast growth factor receptor 4 (FGFR4, Homo sapiens, UniProt P22455) | 94.3% |
| Receptor-type tyrosine-protein kinase FLT3 (FLT3, Homo sapiens, UniProt P36888) | 100% |
| Myosin light chain kinase, smooth muscle (MYLK, Homo sapiens, UniProt Q15746) | 93.9% |

Series 4 — host: human; sample: microsomes or S9; tested at: 2 µM; time: 0.5 h
| SMILES | remaining compound [%] |
| --- | --- |
| CCOc1cc2c(cc1CNc1ccnc3c1cnn3C)OC(C)C2 (centres unmarked) | 1.32 |
| CC(C)C1(C)N=C(c2nn(C)cc2Br)NC1=O (centres unmarked) | > 99.9 |
| COc1ccc(Cc2nc(-c3ccc(=O)[nH]c3)no2)cc1Cl | 72.4 |

Repeated from above (series 3):
| target | remaining activity |
| --- | --- |
| Fibroblast growth factor receptor 4 (FGFR4, Homo sapiens, UniProt P22455) | 94.3% |
| Receptor-type tyrosine-protein kinase FLT3 (FLT3, Homo sapiens, UniProt P36888) | 100% |
| Myosin light chain kinase, smooth muscle (MYLK, Homo sapiens, UniProt Q15746) | 93.9% |
